{"data": "Results collected from several papers", "CTSL": "Procathepsin L (CTSL, Homo sapiens, UniProt P07711)", "note": "Compare with care: the assays were run in different laboratories.", "sequence of UniProt P07711 (whole entry, looked up)": "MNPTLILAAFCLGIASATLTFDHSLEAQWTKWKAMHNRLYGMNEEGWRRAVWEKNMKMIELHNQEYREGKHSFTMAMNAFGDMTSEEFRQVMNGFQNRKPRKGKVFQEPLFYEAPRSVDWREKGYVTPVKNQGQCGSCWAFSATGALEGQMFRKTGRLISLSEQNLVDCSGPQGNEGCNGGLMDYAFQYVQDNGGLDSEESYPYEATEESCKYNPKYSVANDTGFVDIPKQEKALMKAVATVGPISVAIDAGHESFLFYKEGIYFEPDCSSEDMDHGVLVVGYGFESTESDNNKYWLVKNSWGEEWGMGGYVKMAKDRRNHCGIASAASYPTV", "sequence of UniProt P10721 (whole entry, looked up)": "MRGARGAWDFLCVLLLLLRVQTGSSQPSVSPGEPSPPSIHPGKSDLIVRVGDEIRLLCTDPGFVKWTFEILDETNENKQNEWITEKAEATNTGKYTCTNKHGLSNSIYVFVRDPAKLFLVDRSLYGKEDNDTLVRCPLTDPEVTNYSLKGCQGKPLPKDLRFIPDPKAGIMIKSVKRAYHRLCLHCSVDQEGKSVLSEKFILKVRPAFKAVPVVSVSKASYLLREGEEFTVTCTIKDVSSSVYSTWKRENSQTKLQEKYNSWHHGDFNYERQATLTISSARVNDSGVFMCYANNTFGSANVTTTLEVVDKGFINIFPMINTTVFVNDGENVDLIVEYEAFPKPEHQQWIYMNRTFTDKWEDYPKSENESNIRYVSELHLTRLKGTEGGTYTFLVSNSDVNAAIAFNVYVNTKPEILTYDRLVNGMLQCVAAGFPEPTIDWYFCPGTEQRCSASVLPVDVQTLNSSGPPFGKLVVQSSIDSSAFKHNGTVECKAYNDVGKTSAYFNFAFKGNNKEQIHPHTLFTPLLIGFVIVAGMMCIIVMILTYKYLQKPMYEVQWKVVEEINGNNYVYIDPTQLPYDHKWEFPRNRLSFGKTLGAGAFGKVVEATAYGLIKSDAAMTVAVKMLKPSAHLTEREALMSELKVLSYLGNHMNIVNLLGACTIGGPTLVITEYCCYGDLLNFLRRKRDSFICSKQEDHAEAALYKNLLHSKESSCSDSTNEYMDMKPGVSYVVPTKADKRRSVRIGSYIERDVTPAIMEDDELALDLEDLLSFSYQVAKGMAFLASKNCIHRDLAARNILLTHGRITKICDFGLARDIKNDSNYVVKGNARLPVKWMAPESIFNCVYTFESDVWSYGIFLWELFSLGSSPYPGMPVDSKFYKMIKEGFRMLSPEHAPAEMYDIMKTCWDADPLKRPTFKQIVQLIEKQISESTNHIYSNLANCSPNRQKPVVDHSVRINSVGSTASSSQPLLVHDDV", "sequence of UniProt Q70EK9 (whole entry, looked up)": "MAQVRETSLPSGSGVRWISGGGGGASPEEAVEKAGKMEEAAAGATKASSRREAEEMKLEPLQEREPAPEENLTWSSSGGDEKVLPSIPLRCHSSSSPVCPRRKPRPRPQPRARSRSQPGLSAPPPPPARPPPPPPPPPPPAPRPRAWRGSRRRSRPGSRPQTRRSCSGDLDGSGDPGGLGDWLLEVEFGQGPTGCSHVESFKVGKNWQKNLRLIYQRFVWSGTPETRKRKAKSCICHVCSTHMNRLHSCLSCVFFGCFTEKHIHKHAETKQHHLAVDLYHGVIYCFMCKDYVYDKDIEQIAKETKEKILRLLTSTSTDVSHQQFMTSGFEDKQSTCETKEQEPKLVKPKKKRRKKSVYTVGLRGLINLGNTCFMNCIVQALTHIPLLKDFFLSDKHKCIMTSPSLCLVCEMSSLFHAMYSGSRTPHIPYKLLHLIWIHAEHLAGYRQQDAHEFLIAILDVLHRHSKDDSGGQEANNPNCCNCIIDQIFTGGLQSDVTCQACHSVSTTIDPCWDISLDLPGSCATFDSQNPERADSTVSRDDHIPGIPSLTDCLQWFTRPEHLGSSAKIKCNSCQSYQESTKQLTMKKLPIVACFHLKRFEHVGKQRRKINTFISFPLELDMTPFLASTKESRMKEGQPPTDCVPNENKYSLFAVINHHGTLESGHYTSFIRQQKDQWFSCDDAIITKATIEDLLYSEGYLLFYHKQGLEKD", "sequence of UniProt P61075 (whole entry, looked up)": "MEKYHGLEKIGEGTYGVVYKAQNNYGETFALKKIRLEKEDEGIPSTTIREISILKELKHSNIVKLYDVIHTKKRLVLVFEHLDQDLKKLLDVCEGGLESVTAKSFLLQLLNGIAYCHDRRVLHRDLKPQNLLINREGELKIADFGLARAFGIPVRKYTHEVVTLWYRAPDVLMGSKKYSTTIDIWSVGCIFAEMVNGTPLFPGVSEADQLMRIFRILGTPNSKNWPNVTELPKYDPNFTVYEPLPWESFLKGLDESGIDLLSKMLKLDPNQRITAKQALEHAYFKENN", "sequence of UniProt P42679 (whole entry, looked up)": "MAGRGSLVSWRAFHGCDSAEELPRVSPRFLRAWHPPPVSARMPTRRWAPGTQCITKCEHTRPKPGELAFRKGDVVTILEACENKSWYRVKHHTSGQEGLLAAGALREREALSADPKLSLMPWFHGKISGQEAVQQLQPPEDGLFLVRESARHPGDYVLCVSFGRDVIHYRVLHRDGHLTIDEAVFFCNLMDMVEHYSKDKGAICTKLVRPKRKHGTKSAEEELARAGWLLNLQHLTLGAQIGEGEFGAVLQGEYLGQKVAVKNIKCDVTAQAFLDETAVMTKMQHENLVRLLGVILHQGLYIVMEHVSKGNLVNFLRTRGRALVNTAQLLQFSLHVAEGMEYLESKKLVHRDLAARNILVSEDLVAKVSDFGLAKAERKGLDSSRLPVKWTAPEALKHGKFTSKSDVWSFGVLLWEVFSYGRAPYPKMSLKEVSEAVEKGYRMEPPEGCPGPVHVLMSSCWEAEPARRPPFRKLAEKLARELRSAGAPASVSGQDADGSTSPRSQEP", "sequence of UniProt Q15303 (whole entry, looked up)": "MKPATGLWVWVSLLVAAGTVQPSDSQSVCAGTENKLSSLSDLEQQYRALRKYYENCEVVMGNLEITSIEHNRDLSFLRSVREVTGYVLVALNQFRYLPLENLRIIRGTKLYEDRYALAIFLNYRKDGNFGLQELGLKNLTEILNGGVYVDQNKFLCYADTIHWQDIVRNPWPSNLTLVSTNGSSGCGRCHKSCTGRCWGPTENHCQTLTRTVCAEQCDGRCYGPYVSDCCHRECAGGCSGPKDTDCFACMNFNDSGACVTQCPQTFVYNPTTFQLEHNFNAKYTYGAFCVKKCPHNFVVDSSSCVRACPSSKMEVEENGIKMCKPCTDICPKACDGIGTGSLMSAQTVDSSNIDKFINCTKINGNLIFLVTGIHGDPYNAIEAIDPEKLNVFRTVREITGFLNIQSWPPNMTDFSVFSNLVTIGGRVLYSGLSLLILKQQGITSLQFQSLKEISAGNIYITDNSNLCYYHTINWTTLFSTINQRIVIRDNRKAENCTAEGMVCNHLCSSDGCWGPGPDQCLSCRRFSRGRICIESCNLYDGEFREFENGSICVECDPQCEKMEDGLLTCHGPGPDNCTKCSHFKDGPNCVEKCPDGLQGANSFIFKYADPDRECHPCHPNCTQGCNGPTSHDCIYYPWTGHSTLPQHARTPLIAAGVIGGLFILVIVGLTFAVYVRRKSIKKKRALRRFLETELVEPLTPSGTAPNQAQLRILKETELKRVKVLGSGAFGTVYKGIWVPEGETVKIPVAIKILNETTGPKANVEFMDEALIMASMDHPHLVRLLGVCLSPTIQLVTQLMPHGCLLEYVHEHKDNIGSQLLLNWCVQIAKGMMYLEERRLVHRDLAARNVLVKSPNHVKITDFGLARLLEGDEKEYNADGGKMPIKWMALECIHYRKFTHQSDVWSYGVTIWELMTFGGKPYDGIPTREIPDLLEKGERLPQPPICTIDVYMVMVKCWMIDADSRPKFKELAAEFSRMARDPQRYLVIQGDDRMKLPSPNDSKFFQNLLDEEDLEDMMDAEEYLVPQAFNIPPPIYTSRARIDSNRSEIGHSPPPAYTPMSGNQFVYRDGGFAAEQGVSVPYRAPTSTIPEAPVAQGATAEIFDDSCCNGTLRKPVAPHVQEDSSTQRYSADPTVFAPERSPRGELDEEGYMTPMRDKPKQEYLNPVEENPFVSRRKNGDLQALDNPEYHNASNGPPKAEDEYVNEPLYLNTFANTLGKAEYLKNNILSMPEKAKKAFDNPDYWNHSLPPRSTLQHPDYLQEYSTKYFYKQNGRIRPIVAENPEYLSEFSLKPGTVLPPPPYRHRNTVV", "sequence of UniProt Q13177 (whole entry, looked up)": "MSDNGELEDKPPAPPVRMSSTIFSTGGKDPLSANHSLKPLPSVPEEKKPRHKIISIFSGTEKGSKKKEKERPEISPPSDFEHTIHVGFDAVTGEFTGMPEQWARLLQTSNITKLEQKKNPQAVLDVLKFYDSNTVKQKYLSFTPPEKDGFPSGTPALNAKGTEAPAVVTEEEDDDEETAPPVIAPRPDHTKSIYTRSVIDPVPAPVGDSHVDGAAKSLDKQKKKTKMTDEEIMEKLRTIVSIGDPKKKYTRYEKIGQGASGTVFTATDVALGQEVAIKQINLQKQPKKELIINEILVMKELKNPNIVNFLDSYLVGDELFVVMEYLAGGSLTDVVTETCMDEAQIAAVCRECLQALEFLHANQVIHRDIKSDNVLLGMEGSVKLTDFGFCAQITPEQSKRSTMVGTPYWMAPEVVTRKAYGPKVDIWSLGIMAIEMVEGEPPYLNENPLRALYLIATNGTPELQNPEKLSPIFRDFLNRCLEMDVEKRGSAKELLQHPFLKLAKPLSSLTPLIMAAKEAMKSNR", "sequence of UniProt P35462 (whole entry, looked up)": "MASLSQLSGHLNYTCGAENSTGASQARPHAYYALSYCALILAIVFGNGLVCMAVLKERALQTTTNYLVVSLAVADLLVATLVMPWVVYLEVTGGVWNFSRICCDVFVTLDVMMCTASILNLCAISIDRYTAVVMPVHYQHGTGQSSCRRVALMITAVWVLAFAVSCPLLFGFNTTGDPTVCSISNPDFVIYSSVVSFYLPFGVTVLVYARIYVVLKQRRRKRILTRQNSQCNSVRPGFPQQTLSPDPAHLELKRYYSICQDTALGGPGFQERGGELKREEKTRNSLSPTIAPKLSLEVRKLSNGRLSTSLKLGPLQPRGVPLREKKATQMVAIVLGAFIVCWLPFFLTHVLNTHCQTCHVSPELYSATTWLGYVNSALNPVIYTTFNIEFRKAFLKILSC"}
{"SMILES": "CNc1ncc2c(/C=C/C(=O)N3CCC(OC)CC3)nn(Cc3cccc(C(F)(F)F)c3)c2n1", "target": "Serine/threonine-protein kinase PAK 2 (PAK2, Homo sapiens, UniProt Q13177)", "test": "enzyme activity, inhibitor, radiometric", "setting": "1 µM", "quantity": "remaining activity", "value": "97%"}
{"SMILES": "CCCCC(=O)Nc1ccc(-c2ccc3ncn(CCC)c(=O)c3c2)cn1", "target": "Serine/threonine-protein kinase haspin (HASPIN, Homo sapiens, UniProt Q8TF76)", "test": "binding, competition with immobilised ligand", "setting": "0.5 µM", "quantity": "remaining binding", "value": "100%"}
{"SMILES": "C=CCS[S+]([O-])CC=C (stereo not shown)", "target": "Ubiquitin carboxyl-terminal hydrolase 51 (USP51, Homo sapiens, UniProt Q70EK9)", "test": "enzyme activity, inhibitor", "setting": "5 µM", "quantity": "inhibition", "value": "0%"}
{"SMILES": "Nc1ncnc2occ(-c3ccc(NC(=O)Nc4cc(C(F)(F)F)ccc4F)cc3)c12", "target": "Epidermal growth factor receptor (EGFR, Homo sapiens, UniProt P00533, L861Q)", "test": "cell-free assay", "setting": "20 µM", "quantity": "remaining signal", "value": "24%"}
{"SMILES": "CN(CCCC(F)(F)F)c1nccc(-c2cnn3ncccc23)n1", "target": "Cyclin-dependent kinase 2 homolog (CRK2, Plasmodium falciparum, UniProt P61075)", "test": "cell-free assay", "setting": "1 µM", "quantity": "remaining signal", "value": "100%"}
{"SMILES": "C=CC(=O)N1CCC(COCC(=O)N2CCN(c3nc(-c4cnc(N)nc4C(F)F)nc(N4CCOC[C@@H]4C)n3)CC2)CC1", "target": "Megakaryocyte-associated tyrosine-protein kinase (MATK, Homo sapiens, UniProt P42679)", "test": "binding, competition with immobilised ligand", "setting": "1 µM", "quantity": "remaining binding", "value": "100%"}
{"SMILES": "O=c1c(O)c(-c2ccc(O)cc2)oc2cc(O)cc(O)c12", "target": "CTSL", "test": "enzyme activity, inhibitor", "setting": "100 µM", "quantity": "remaining activity", "value": "74.9%"}
{"SMILES": "COc1cc(-c2cncc3c2CN(C)Cc2cc(N4CCNCC4)ccc2-3)cc(OC)c1OC", "target": "Tyrosine-protein kinase Lck, phosphorylated (LCK, Homo sapiens, UniProt P06239)", "test": "enzyme activity, inhibitor", "setting": "1 µM", "quantity": "remaining activity", "value": "81%"}
{"SMILES": "FC(F)(F)Oc1cccc(-c2cnc3ccc(-c4ccncc4)nn23)c1", "target": "Mast/stem cell growth factor receptor Kit (KIT, Homo sapiens, UniProt P10721)", "test": "cell-free assay, competition with immobilised ligand", "setting": "5 µM", "quantity": "remaining binding", "value": "20%"}
{"SMILES": "O=C1c2cccc(O)c2C(=O)c2c(O)cc(CO)cc21", "target": "CTSL", "test": "enzyme activity, inhibitor", "setting": "100 µM", "quantity": "remaining activity", "value": "69.4%"}
{"SMILES": "CC[C@H](C)[C@H](NC(=O)[C@H](CCC(N)=O)NC(=O)[C@@H](NC(=O)[C@H](CCSC)NC(=O)[C@H](CCCCN)NC(=O)[C@H](CO)NC(=O)[C@@H](NC(=O)[C@H](CCSC)NC(=O)[C@H](CC(C)C)NC(=O)[C@H](CC(N)=O)NC(=O)[C@@H](NC(=O)[C@@H](NC(=O)[C@H](CO)NC(=O)[C@H](CC(C)C)NC(=O)[C@H](C)NC(=O)[C@H](CCCNC(=N)N)NC(=O)[C@H](CCC(=O)O)NC(=O)[C@H](Cc1ccc(O)cc1)NC(=O)[C@H](Cc1ccccc1)NC(=O)[C@H](C)NC(=O)[C@H](CC(N)=O)NC(=O)[C@@H](N)CCCCN)[C@@H](C)CC)[C@@H](C)CC)[C@@H](C)O)C(C)C)C(=O)N[C@@H](CC(N)=O)C(=O)N[C@H](C(=O)O)C(C)C", "target": "Glycogen synthase kinase-3 beta (GSK3B, Homo sapiens, UniProt P49841)", "test": "enzyme activity, inhibitor, radiometric", "setting": "1 µM", "quantity": "inhibition", "value": "1%"}
{"SMILES": "CC1OC(OC2C(CO)OC(OCC3OC(OC(=O)C45CCC(C)(C)CC4C4=CCC6C7(C)CCC(OC8OCC(O)C(O)C8OC8OC(C)C(O)C(O)C8O)C(C)(CO)C7CCC6(C)C4(C)CC5)C(O)C(O)C3O)C(O)C2O)C(O)C(O)C1O (stereo not shown)", "target": "CTSL", "test": "enzyme activity, inhibitor", "setting": "100 µM", "quantity": "remaining activity", "value": "164%"}
{"SMILES": "Cc1cc([C@@H](C)Nc2ccccc2C(=O)O)c2nc(N3CCC(F)(F)CC3)c(C#N)c(=O)n2c1", "target": "Receptor tyrosine-protein kinase erbB-4 (ERBB4, Homo sapiens, UniProt Q15303)", "test": "binding, competition with immobilised ligand", "setting": "1 µM", "quantity": "remaining binding", "value": "95%"}
{"SMILES": "C1=C/COCc2cc(ccc2OCCN2CCCC2)Nc2nccc(n2)-c2cccc(c2)COC/1", "target": "Ephrin type-B receptor 6 (EPHB6, Homo sapiens, UniProt O15197)", "test": "binding", "setting": "0.1 µM", "quantity": "remaining binding", "value": "14%"}
{"SMILES": "CC(=O)c1cc(-c2ccccc2Cl)c2ccccn12", "target": "Bromodomain-containing protein 9 (BRD9, Homo sapiens, UniProt Q9H8M2)", "test": "thermal stability, DSF", "setting": "200 µM", "quantity": "ΔTm", "value": "2.5 °C"}
{"SMILES": "Cc1[nH]c(C)c(S(=O)(=O)Nc2cc(Cl)c(C(F)(F)F)c(Cl)c2)c1C(=O)N1CCC(F)(F)C1", "target": "D(3) dopamine receptor (DRD3, Homo sapiens, UniProt P35462)", "test": "β-arrestin recruitment, agonist", "setting": "90 min", "quantity": "Emax", "value": "95%"}
